Measurements collected from several papers.
Numbered parts are unrelated; each lists some results of a single study.

Study 1 — method: protein binding microarray; molecule type: double-stranded DNA, one strand shown; sample: in vitro; concentration: not given; reference: not given; direction: higher = stronger binding; quantity: E-score
Target: Histone acetyltransferase KAT6A, winged helix 2, GST fusion (KAT6A, Homo sapiens, UniProt Q92794, residues 85-181)
Notes: 8-mer, flanks averaged, mean of 2 arrays, mostly near background
Construct (chain): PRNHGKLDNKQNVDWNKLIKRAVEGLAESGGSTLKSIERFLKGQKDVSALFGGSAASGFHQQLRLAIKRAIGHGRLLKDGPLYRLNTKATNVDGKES
CTCTCGTA: -0.0948
CGATGTTC: -0.0924
ATCGCAAT: 0.0252
GCCTTCGC: 0.214
TGCGCGCA: 0.00745
CGAAGCGC: 0.0456
AGATAATA: 0.0193
GACCATAC: -0.13
ATACGGGC: -0.159
GCTTTATA: -0.136
AAGGGGTG: -0.119
CCTTTTAC: -0.004
GCGGACTA: -0.0228
CACAACCC: -0.019
AGACGGGC: 0.121
CCGGCGAG: 0.189
ATCTCAGG: -0.163
GAACGTCA: -0.217
ATGGGAAC: 0.0514

Study 2 — method: protein-binding microarray; molecule type: double-stranded DNA, one strand shown; sample: in vitro; concentration: 250 nM; notes: 60-bp whole probe; with: salmon DNA 0.4 mg/ml; reference: random background probes; direction: higher = stronger binding; quantity: log fluorescence; all sequences stand within: GCCTAGCAC … GTCTTGATTCGCTTGACGCTGCTG
Target: Interferon regulatory factor 7, full length, phosphomimetic (IRF7, Homo sapiens, UniProt Q92985, residues 1-503, S101K/S471D/S472D/S475D/S476D/S477D/S483D/S484D/S487D)
Target sequence (chain): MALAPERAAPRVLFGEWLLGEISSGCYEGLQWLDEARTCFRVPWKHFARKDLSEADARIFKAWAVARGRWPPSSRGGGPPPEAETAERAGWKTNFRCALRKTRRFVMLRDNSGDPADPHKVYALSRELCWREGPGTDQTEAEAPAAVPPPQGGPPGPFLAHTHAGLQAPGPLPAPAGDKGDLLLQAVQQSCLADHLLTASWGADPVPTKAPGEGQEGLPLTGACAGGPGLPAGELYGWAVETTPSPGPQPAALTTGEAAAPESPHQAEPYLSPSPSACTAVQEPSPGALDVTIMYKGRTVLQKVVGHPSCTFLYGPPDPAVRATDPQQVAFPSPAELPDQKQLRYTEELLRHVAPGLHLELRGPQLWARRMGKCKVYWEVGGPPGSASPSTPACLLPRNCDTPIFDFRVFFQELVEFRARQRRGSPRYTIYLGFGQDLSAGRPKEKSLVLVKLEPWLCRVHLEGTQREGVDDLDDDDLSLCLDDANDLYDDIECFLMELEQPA
TCACGTCTGGGTGTTTTACTGTGCTAG: -0.355 z-score
TTTTTTTTTTTTGTATTTTTGTGCTAG: 0.805 z-score
TTGGTTTTCTCTATTGCTTTGTGCTAG: 1.01 z-score
GAGGGTTTCCTTCTCCTGACGTGCTAG: 1.26 z-score
GACGCTTTCGGTATCGGGACGTGCTAG: 2.08 z-score
TCATTTATATACCTGAAACTGTGCTAG: 1.22 z-score
TTAGATATCGGGATTGGATTAGTGCTA: 0.11 z-score
TAAGGACTGGGTTTCGGTTAGTGCTAG: 7.38 z-score
TTAGATAGCAGTATCGATTAGTGCTAG: 0.319 z-score
TCAGATAACTTTTTTTTACTGTGCTAG: -0.121 z-score
TTAGGTATCCTTTTCCTTGAGTGCTAG: 1.81 z-score
TTAGATTTCGGCTATCGATTAGTGCTA: 0.44 z-score
ATAGGTTTCCTTTCCCTTTAGTGCTAG: 4.73 z-score
TCAGGTATAGCACTAAGACTGTGCTAG: -0.706 z-score
TTAGGTTTCCTAATGCTTTAGTGCTAG: 1.99 z-score
TGGTTTTCCTTATTGCTTCCTGTGCTA: 2.96 z-score
TCACCTCTGTAAGTCAGACTGTGCTAG: 0.0176 z-score
TCAGGTTTACCAGATCATCTGGTGCTA: 0.127 z-score
TATGGTTTTTTTTTAATTGAGTGCTAG: 0.661 z-score
GACAGTTTCGGGTTTCGGGACGTGCTA: 11.2 z-score
CTTGCTTTGTGCCTAGCCTTGTGCTAG: 0.2 z-score
CCTCTTCTGGATCTCAGACTGTGCTAG: 0.754 z-score
AACCATTTTGTTTTTCATTAGTGCTAG: 0.962 z-score

Study 3 — method: competition protein-binding microarray; molecule type: double-stranded DNA, one strand shown; sample: in vitro; concentration: 2 µM; with: Pho4 competitor, 0.05 µM; direction: higher = stronger binding; quantity: fluorescence intensity; all sequences stand within: … GTCTTGATTCGCTTGACGCTGCTG
Target: Centromere-binding protein 1, full length, His-tagged (CBF1, Saccharomyces cerevisiae, UniProt P17106, residues 1-351)
Chain of UniProt P17106 (whole entry, looked up): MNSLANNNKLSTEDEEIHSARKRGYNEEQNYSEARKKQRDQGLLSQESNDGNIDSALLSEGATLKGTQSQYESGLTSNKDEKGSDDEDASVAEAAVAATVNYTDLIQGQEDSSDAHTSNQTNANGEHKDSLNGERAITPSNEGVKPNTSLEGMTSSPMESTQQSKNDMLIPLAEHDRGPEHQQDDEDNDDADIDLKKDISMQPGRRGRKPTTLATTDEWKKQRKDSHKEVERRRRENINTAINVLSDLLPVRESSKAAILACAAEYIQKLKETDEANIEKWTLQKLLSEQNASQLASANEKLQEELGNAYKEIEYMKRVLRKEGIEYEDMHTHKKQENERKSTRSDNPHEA
Notes: whole 60-bp probe, lowest competitor level
CAACTTTCTTAGATATGCGTGCCGAAAGGCGACCCA: 58.8 a.u.
GTCGGTTTCATCTTCTCCGTGATGGCTTTGCATCTA: 78.6 a.u.
TTTCAAAGCTGCCTCCACGTGGAACTTTTATTTCAT: 575 a.u.
CTTAAATGAAACTGACGCGTGGCCGTAGATTCCAAC: 74.2 a.u.
CATACCCAACCTTTTCACGTGTTCTAAGATATTTGT: 1500 a.u.
CTTCTGTAAATTTGAGAAGTGGGTGGACGCGCCCCG: 73.8 a.u.
GCTAGAGTAAAATAGTGCATGACAAAAGATGAGCTA: 106 a.u.
GATCTACTATCAGTTTTCGTGGCCGATGGGTTACAT: 72.7 a.u.
GCATTGATCAATTTGCACGATGGAAAATTTTTCACT: 89.1 a.u.
CTTCTGTAAATTTGCACTGTGGGTGGACGCGCCCCG: 83.6 a.u.
ATGAAATAACATCCACACGTGTAAGAATATATAATT: 1170 a.u.
AAACGTAGTTACGGCCACGTGGGTAAGATATGAAAG: 1310 a.u.
GATTTGAATACAACCGTCGTGCCGAACATCGCGGTT: 74.6 a.u.
AAATTACTAAGTTGCGAAGTGGGTGACGCCGTATGA: 68.3 a.u.
CTTTCCCGATCTTGGCGGGTGGGTGTAGCACATTTG: 57.2 a.u.
TTGTTGAGTAATCGGCACGTCACCGCACAACAGCCG: 60.5 a.u.
AAATTACTAAGTTGCTCCGTGGGTGACGCCGTATGA: 54.9 a.u.
CGGGCTGATCCCTTTATCGTGCATCTTGACCACTTT: 52.3 a.u.
ATCCCATTGGGTAAAAACGTGGTCGTCAAATGGCAA: 233 a.u.
TCGAGCTGACACTATCACATGCGATTGCGCAATCTT: 164 a.u.
CCTTCACTATTTTAACATGTGGAATTCTTGAAAGAA: 122 a.u.
GTCTTGTCTCATTGTCACCAGACTTTCCCCACTTCA: 101 a.u.
AACAATAGAAGAAGTGTATAGGAAAAAACTAAGGTG: 87.7 a.u.
TGAACTTGGACAAACCTCGTGGTGAAATTTAAAAAT: 163 a.u.

Study 4 — method: RNA Bind-n-Seq; molecule type: RNA; sample: in vitro; concentration: 365 nM; reference: no-protein control; direction: higher = stronger binding; quantity: RBNS enrichment (R)
Target: RNA binding protein fox-1 homolog 2, RRM domain, GST-SBP tag (RBFOX2, Homo sapiens, UniProt O43251-10, residues 100-194)
Notes: natural RNA segment, single round, ends assumed
All sequences stand within: GGGAGUUCUACAGUCCGACGAUC … UGGAAUUCUCGGGUGCCAA
Construct (chain): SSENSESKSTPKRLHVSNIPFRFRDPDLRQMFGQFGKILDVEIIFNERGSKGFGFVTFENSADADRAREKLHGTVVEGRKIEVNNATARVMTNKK
UCAAAAACGAAAGCACACCACCCAAGACACAGUACCCAGUCAUGGUUUCCCCAUCCAACUAUUAGUUUCAUACUUUGAAAACUUACUUUCAGAUUAUUCUCAAAGAACAC: 0.622
UUAAAGCUAUUUUAAAUGUGUUUUUAUUUGUAAGACAUUACUUAUUAAGAAAUUGGUUAUUAUGCUUACUGUUCUAAUCUGGUGGUAAAGGUAUUCUUAAGAAUUUGCAG: 0.965
AUCAUUAAGACCACGGAGCAGCUCAUCGAGGCCGUCAACAACGGUGACUUUGAGGCCUACGGGAAAAUCUGUGACCCAGGGCUGACCUCGUUUGAGCCUGAAGCACUGGG: 0.178
CGCAUGGGGUAAGGGCUUUCAUCUCAGUAAUUCUCUUGUUCUAAGGAGAUCAGCUCCAACUAUGGUGGGGUGAGUUUUUCCUGACUUGGAGGCUUGCCAGAGAAGGUGGA: 3.03
CUUAGGUUUUCUAAGGACAUUGUUUUAAUCUGUAUCGUGCCAAAGUUGUAUCACUGUUAAACUUCUGAAGACAUAACCAGUUGAGUCUUAUUUCAAGAUAUGUUCUCAAG: 0.4
AAAAAUAAAAAAAUAUGUCUUCACAUAUCCCUCAUAGCUGUCUGCCUCUUGUCUGCAAUAGGAUGUUCAUGUACAAAAGUGGUUUUCUUUAAUAAAAGGUGGAAACAUUG: 0.52
AUGAGAUUUAAUCCACCAAGGAGAAUUGGUUGGGUUUGUUUAGCCUCUAAAGUUAUAGAAAGAAUGAUGGUGGUAGUGGAGAGUAAGCCUCUUUGGGACCCUGCUUAGAG: 0.521
CAUCCGUAAUGAGAUCUGAUGCCCUCUUCUGGUGUGUCUGAAGAGAGCUACAGUGUACUCAUAUAAAUAAAAUAAUAAAUCUUUAAAAAAAAAUUCCUUUAACCCAAUUG: 1.34
UGCAGAGCCAGGCUUGUACCACAGCUCAGAGGCGUCAAGUUUCCAAUUAAAGCCACUGGAGAAAACCGAAAUGUGUCUCAUCCUUGUAUUUAUUGAUCUUGAUUGUCAGU: 0.241
AAUCAUGACAUGCACGGACACGUACAUAUUUAACUGAAACAAGUUUUACCAAACAGUAUUUACUCGUGAUGUGCGUAGUGCAUUCUGAUAUUUUUGAGCCAUUCUAUUGU: 0.311
AUAAAACAAUUUUAAGACCAUUCAGGCCACAUAAGAUGAGAAUGCAAUUUUGUAGGAUUACAAAAAAGCCAUUAAUAUGCCAGUCAAGACUACAGUUAAAACUACUCUUG: 0.27
CCCGCCGCAGCCUGCCAUCCCAUUUGGAUGUAUCAAUGCCACUGAGUUGUCUGUCCGUCCGUGGAGCCAGUCCUAGCCACAUUAUUGACAGUCUUGCAUUUUGUUUUGUC: 1.8

Excerpt of the above (study 4):
CCCGCCGCAGCCUGCCAUCCCAUUUGGAUGUAUCAAUGCCACUGAGUUGUCUGUCCGUCCGUGGAGCCAGUCCUAGCCACAUUAUUGACAGUCUUGCAUUUUGUUUUGUC: 1.8
AAUCAUGACAUGCACGGACACGUACAUAUUUAACUGAAACAAGUUUUACCAAACAGUAUUUACUCGUGAUGUGCGUAGUGCAUUCUGAUAUUUUUGAGCCAUUCUAUUGU: 0.311
UGCAGAGCCAGGCUUGUACCACAGCUCAGAGGCGUCAAGUUUCCAAUUAAAGCCACUGGAGAAAACCGAAAUGUGUCUCAUCCUUGUAUUUAUUGAUCUUGAUUGUCAGU: 0.241
CAUCCGUAAUGAGAUCUGAUGCCCUCUUCUGGUGUGUCUGAAGAGAGCUACAGUGUACUCAUAUAAAUAAAAUAAUAAAUCUUUAAAAAAAAAUUCCUUUAACCCAAUUG: 1.34
UCAAAAACGAAAGCACACCACCCAAGACACAGUACCCAGUCAUGGUUUCCCCAUCCAACUAUUAGUUUCAUACUUUGAAAACUUACUUUCAGAUUAUUCUCAAAGAACAC: 0.622
AUGAGAUUUAAUCCACCAAGGAGAAUUGGUUGGGUUUGUUUAGCCUCUAAAGUUAUAGAAAGAAUGAUGGUGGUAGUGGAGAGUAAGCCUCUUUGGGACCCUGCUUAGAG: 0.521
AAAAAUAAAAAAAUAUGUCUUCACAUAUCCCUCAUAGCUGUCUGCCUCUUGUCUGCAAUAGGAUGUUCAUGUACAAAAGUGGUUUUCUUUAAUAAAAGGUGGAAACAUUG: 0.52
AUCAUUAAGACCACGGAGCAGCUCAUCGAGGCCGUCAACAACGGUGACUUUGAGGCCUACGGGAAAAUCUGUGACCCAGGGCUGACCUCGUUUGAGCCUGAAGCACUGGG: 0.178
UUAAAGCUAUUUUAAAUGUGUUUUUAUUUGUAAGACAUUACUUAUUAAGAAAUUGGUUAUUAUGCUUACUGUUCUAAUCUGGUGGUAAAGGUAUUCUUAAGAAUUUGCAG: 0.965
AUAAAACAAUUUUAAGACCAUUCAGGCCACAUAAGAUGAGAAUGCAAUUUUGUAGGAUUACAAAAAAGCCAUUAAUAUGCCAGUCAAGACUACAGUUAAAACUACUCUUG: 0.27
CGCAUGGGGUAAGGGCUUUCAUCUCAGUAAUUCUCUUGUUCUAAGGAGAUCAGCUCCAACUAUGGUGGGGUGAGUUUUUCCUGACUUGGAGGCUUGCCAGAGAAGGUGGA: 3.03
